Results from different studies.
Compare with care: the assays were run in different laboratories. Numbers after ± are the reported error.

`CCc1nnc(NS(=O)(=O)c2ccc(NC(=S)NC(=O)/C=C/c3ccc(F)cc3)cc2)s1` — result for colony density: “decreased” (SK-N-AS; 10 µM, 2 weeks).
`CCOc1ccccc1OCCN[C@H](C)Cc1ccc(OC)c(S(N)(=O)=O)c1`: “minimum effective concentration” 3 µM (hiPSC cardiac tissues 3D; active force; 15 min per concentration, paced at 1 Hz serum-free).
For `COc1cc(CN2CCN(c3ccc(Cl)cc3)CC2)c2cc3[n+](cc2c1O)CCc1cc2c(cc1-3)OCO2`, the therapeutic index was 27.8 (Ca-Ski and MDCK; SRB; 48 h; relative to: CC50 MDCK over IC50 Ca-Ski).
`COc1cc(CNC(=O)C[C@H](C)CCC=C(C)C)ccc1OCc1cn(-c2cccc(Cl)c2)nn1` gave a growth percent of 79.4% (SN12C; SRB; 10 µM, 48 h).
`Cc1ccc(CN2C(=O)/C(=N\c3ccc(Cl)cc3Br)c3ccccc32)cc1` has an apoptotic cells of 45% (A-375; 2.7 µM, 48 h).
With `COc1cc(CNC(=O)C[C@H](C)CCC=C(C)C)ccc1OCc1cn(-c2ccccc2)nn1` the growth percent was 48% (SK-OV-3 ovarian cancer cells; SRB; 10 µM, 48 h).
With `CC(=O)OC[C@H]1O[C@@H](Sc2sc(C(=O)c3ccc(Br)cc3)c(N)c2-c2nc3ccccc3s2)[C@H](OC(C)=O)[C@@H](OC(C)=O)[C@H]1OC(C)=O` the growth percent was 94.4% (786-0 renal cancer; SRB; 10 µM, 48 h).
Under “nitric oxide production”, `CCCCCCCCCCCCCCCCCCCCCCCCCCCCCCOC(=O)/C=C/c1ccc(O)cc1` is recorded as “inactive” (J774.2; inhibitor; concentration not given, with: LPS).
`CCC(=C(c1ccc(Cl)cc1)c1ccc(OCCCN(C)C)cc1)c1ccc(OC)cc1`: “alkaline phosphatase activity” 1.36 ± 0.97 (Ishikawa; estrogenic activity, agonist; 1 nM, 72 h, unit not given; relative to: DMSO).
With `CC(=O)OC[C@H]1O[C@@H](Sc2sc(C(=O)c3ccc(C)cc3)c(N)c2-c2nc3ccccc3s2)[C@H](OC(C)=O)[C@@H](OC(C)=O)[C@H]1OC(C)=O` the growth was 83.7% (HOP-92; SRB; 10 µM, 48 h; relative to: untreated).
With `N=C(N/N=C/c1cc2ccccc2c2ccccc12)N/N=C/c1cc2ccccc2c2ccccc12` the selectivity ratio was 1.3 (PANC-1; crystal violet; 72 h; relative to: IC50 IMR-90 over IC50 PANC-1).
Under “cytosolic to membrane αS ratio”, `Cc1c(C(=O)Nc2ccn(C)n2)ncn1Cc1cccc(C(F)(F)F)c1` is recorded as “increased” (M17D expressing αS E46K; sequential extraction, western blot; 10 µM, 48 h, TBS vs Triton X-100 soluble).
`C=CC(=O)N1C[C@H](C)N(c2nc(OC[C@@]34CCCN3C[C@H](F)C4)nc3c(F)c(-c4ccc(F)c5sc(N)c(C#N)c45)c(C(F)(F)F)cc23)C[C@H]1C` gave a potency ratio of 5 to 10 (MEF expressing KRAS G13D; pERK; relative to: KRAS G12C over KRAS G13D).
`COc1cc(CNC(=O)C[C@H](C)CCC=C(C)C)ccc1OCc1cn(-c2cccc(C(F)(F)F)c2)nn1` gave a growth percent of 90.1% (NCI-H322M; SRB; 10 µM, 48 h).
Under “time to PI leakage”, `CC(C)C[C@@H](NC(=O)[C@@H](CC(C)C)NC(=O)[C@@H](CO)NC(=O)[C@@H](Cc1c[nH]cn1)NC(=O)[C@@H](CC(C)C)NC(=O)[C@@H](CO)NC(=O)[C@@H](CCCNC(=N)N)NC(=O)[C@@H](CO)NC(=O)[C@H](N)Cc1ccccc1)C(=O)NCC(=O)NCCCCCC(=O)N[C@H](CCCNC(=N)N)C(=O)N[C@H](CCCNC(=N)N)C(=O)N[C@H](CCCNC(=N)N)C(=O)N[C@H](CCCNC(=N)N)C(=O)N[C@H](CCCNC(=N)N)C(=O)N[C@H](CCCNC(=N)N)C(=O)N[C@H](CCCNC(=N)N)C(=O)N[C@H](CCCNC(=N)N)C(=O)NCC(=O)N[C@@H](CS)C(=O)O` is recorded as no more than 20 min (KG-1a; 10 µM, 37 °C, 10% FBS).
For `COc1cc(CNC(=O)C[C@H](C)CCC=C(C)C)ccc1OCc1cn(-c2ccccc2F)nn1`, the growth percent was 95.8% (TK-10; SRB; 10 µM, 48 h).
`O=Cc1c(O)ccc2ccccc12`: “log2 fold change” 3.55 (HUVEC; RNA sequencing, item: LURAP1L; 75 µM, 24 h; relative to: DMSO).
`COc1cc(CNC(=O)C[C@H](C)CCC=C(C)C)ccc1O` gave a growth percent of 94.1% (NCI-H23; SRB; 10 µM, 48 h).
The cell count of `COc1ccc([C@@H]2CC(=O)c3c(O)cc(O[C@@H]4O[C@H](CO[C@@H]5O[C@@H](C)[C@H](O)[C@@H](O)[C@H]5O)[C@@H](O)[C@H](O)[C@H]4O)cc3O2)cc1O` is reported as 19200 ± 523 (MRC5; trypan blue exclusion; 100 µg/mL, 72 h).

For quick reference, copied from above:
`CCC(=C(c1ccc(Cl)cc1)c1ccc(OCCCN(C)C)cc1)c1ccc(OC)cc1`: “alkaline phosphatase activity” 1.36 ± 0.97 (Ishikawa; estrogenic activity, agonist; 1 nM, 72 h, unit not given; relative to: DMSO).
With `CC(=O)OC[C@H]1O[C@@H](Sc2sc(C(=O)c3ccc(C)cc3)c(N)c2-c2nc3ccccc3s2)[C@H](OC(C)=O)[C@@H](OC(C)=O)[C@H]1OC(C)=O` the growth was 83.7% (HOP-92; SRB; 10 µM, 48 h; relative to: untreated).
